{"data": "Assay results collected from several papers", "GPR84": "G-protein coupled receptor 84 (GPR84, Homo sapiens, UniProt Q9NQS5)", "ESR2": "Estrogen receptor beta (ESR2, Homo sapiens, UniProt Q92731)", "VCP": "Transitional endoplasmic reticulum ATPase (VCP, Homo sapiens, UniProt P55072)", "ABCB1": "ATP-dependent translocase ABCB1 (ABCB1, Homo sapiens, UniProt P08183)", "17-beta-hydroxysteroid dehydrogenase 13": "17-beta-hydroxysteroid dehydrogenase 13 (Homo sapiens, UniProt Q7Z5P4)", "note": "Each line is one published result; not all experiments were run side by side. ± marks the error that the study gave.", "UniProt P55072, sequence (whole entry, looked up)": "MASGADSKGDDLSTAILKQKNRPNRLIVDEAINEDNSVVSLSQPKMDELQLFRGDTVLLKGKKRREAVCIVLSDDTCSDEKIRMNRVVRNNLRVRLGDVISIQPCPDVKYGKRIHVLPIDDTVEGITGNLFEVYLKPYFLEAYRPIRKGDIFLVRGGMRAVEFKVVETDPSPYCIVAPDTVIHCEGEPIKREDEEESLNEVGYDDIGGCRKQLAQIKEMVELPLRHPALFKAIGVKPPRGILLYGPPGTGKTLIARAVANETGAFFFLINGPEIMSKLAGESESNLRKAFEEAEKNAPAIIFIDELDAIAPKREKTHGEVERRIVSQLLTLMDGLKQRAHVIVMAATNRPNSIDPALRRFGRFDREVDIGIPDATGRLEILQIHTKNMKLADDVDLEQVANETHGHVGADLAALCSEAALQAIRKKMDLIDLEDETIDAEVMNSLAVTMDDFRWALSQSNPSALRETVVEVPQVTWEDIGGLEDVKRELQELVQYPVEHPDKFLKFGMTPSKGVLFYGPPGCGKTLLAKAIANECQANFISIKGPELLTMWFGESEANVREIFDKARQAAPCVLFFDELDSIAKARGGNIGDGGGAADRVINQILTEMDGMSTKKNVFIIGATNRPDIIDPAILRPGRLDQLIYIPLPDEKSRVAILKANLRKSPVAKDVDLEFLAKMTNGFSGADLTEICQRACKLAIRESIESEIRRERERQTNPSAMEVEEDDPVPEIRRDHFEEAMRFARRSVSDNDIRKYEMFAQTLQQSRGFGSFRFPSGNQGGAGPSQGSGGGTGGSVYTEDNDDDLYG", "UniProt Q9NQS5, sequence (whole entry, looked up)": "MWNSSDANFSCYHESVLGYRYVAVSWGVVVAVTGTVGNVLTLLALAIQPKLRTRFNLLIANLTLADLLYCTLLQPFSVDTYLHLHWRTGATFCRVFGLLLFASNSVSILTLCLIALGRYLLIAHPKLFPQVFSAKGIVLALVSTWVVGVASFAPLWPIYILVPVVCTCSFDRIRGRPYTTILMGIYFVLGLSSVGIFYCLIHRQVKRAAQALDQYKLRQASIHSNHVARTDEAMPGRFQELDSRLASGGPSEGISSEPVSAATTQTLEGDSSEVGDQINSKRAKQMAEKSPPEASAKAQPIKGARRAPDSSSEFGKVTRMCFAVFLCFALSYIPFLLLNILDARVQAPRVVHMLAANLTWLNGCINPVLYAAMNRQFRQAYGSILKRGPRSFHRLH", "UniProt Q92731, sequence (whole entry, looked up)": "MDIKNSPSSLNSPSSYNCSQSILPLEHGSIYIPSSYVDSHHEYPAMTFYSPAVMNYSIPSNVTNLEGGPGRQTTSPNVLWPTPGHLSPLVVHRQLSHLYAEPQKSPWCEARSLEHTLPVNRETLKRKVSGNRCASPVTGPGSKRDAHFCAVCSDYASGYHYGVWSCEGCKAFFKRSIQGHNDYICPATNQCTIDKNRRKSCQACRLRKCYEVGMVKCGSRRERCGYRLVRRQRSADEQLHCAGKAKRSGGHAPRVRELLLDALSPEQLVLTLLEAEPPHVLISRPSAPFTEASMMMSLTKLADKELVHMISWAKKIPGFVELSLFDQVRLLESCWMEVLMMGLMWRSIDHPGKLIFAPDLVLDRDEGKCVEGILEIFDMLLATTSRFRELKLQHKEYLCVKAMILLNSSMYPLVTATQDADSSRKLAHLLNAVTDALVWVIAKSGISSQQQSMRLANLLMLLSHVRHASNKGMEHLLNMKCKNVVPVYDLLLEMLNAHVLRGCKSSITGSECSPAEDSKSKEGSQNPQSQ", "UniProt Q7Z5P4, sequence (whole entry, looked up)": "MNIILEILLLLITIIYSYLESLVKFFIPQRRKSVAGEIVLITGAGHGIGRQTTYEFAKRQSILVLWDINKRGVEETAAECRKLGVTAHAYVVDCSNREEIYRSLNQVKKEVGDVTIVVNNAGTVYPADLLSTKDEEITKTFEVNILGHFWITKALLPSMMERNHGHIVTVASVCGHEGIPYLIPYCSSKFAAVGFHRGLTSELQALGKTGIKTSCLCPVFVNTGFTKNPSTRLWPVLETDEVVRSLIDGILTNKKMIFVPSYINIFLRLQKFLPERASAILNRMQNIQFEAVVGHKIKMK", "UniProt Q8IWT6, sequence (whole entry, unmodified, looked up)": "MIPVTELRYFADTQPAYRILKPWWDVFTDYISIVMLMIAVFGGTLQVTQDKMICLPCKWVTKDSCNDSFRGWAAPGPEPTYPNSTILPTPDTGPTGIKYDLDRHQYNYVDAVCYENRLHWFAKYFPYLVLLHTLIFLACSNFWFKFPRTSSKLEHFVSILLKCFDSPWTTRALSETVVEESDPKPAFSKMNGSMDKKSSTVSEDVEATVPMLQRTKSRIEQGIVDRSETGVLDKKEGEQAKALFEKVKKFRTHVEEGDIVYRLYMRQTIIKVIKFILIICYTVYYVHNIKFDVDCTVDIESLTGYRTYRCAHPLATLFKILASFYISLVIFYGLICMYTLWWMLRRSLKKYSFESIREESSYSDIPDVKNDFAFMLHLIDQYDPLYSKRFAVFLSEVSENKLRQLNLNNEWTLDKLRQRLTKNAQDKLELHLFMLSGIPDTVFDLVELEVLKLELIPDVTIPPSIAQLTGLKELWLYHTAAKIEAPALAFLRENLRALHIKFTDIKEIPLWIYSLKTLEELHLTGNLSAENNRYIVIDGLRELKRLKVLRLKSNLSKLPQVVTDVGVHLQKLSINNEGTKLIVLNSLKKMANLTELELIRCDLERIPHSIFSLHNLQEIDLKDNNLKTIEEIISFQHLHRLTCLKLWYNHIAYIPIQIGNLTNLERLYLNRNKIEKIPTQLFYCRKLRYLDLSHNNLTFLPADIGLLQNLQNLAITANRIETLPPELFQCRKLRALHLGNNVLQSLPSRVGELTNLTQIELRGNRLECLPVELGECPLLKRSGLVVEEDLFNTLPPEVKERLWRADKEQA", "UniProt P11388, sequence (whole entry, looked up)": "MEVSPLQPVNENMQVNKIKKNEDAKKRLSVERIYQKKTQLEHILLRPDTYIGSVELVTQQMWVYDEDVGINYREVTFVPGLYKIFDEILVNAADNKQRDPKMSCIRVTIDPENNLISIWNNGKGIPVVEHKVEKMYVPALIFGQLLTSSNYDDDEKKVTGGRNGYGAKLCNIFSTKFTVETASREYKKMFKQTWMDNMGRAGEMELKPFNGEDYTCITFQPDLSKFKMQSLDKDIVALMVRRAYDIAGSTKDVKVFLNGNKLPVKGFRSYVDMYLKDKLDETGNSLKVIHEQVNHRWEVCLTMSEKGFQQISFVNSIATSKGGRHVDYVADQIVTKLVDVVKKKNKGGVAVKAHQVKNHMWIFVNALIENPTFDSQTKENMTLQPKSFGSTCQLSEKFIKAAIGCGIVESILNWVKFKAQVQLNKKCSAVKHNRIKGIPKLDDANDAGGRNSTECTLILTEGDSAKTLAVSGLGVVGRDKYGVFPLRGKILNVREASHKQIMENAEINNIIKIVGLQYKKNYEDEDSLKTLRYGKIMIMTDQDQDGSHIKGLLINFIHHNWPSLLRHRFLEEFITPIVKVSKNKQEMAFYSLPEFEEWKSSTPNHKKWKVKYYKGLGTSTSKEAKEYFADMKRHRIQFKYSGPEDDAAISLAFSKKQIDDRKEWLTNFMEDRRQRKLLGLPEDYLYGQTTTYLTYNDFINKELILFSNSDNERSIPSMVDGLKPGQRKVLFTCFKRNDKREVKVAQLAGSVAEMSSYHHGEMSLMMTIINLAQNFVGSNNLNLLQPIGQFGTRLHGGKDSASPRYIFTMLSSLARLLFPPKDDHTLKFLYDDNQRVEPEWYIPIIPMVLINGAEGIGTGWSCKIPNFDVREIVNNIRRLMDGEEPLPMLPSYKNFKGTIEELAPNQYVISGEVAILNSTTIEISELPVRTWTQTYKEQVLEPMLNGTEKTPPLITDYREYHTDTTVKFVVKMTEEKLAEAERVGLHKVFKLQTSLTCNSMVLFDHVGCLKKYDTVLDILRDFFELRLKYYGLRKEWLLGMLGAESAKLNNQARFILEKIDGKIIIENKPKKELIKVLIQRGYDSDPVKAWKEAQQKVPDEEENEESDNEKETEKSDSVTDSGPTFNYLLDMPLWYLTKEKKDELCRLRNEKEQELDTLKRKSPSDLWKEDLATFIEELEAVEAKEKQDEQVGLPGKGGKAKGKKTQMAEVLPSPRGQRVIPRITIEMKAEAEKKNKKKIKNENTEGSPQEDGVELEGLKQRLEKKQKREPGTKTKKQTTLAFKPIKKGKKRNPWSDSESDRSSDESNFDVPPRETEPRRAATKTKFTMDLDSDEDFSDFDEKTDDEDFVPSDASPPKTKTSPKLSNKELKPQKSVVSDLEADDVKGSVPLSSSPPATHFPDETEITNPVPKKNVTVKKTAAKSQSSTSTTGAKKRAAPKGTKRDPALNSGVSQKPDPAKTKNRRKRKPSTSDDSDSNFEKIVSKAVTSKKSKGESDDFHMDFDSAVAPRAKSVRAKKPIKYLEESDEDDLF", "UniProt Q96BN8, sequence (whole entry, looked up)": "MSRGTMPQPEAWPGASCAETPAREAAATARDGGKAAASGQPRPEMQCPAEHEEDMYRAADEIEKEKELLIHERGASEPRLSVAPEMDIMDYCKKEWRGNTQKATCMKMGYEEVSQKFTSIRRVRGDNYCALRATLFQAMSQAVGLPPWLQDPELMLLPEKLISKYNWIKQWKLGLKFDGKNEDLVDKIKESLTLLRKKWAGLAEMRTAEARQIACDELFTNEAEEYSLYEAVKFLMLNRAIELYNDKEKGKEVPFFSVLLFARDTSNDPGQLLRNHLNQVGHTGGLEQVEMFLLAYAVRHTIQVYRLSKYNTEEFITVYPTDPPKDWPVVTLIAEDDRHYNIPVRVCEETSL", "UniProt Q91XE4, sequence (whole entry, looked up)": "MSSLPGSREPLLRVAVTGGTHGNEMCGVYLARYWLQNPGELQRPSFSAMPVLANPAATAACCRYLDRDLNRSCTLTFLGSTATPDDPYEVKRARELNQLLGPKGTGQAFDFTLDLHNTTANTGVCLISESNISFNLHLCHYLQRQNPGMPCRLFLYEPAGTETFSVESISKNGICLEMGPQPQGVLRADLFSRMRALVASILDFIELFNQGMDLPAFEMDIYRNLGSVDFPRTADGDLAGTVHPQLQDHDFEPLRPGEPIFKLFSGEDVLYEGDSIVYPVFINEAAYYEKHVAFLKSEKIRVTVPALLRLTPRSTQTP"}
{"SMILES": "Oc1c(I)cc(Cl)c2cccnc12", "target or system": "N-acyl-aromatic-L-amino acid amidohydrolase (carboxylate-forming) (Acy3, Mus musculus, UniProt Q91XE4)", "setting": "with: NA-Tyr substrate", "measurement": "IC50", "result": "10.1 µM"}
{"SMILES": "O=c1cc(NCCc2cccs2)[nH]c(=O)[nH]1", "target or system": "GPR84", "assay": "cAMP level, agonist", "system": "human cells", "measurement": "EC50", "result": "189 ± 20 nM"}
{"SMILES": "O=C(Nc1cccc2c(=O)cc(-c3nnn[nH]3)oc12)c1ccc(OCCCCc2ccccc2)cc1", "target or system": "LRRC8A/LRRC8C (Homo sapiens, UniProt Q8IWT6+Q8TDW0, E6A)", "assay": "ion current, inhibitor, whole-cell patch clamp", "system": "HCT116 LRRC8-/- transfected", "setting": "at -100 mV", "measurement": "IC50", "result": "0.79 µM"}
{"SMILES": "O=c1cc(-c2ccc(O)cc2)oc2cc(O)c([C@@H]3O[C@H](CO)[C@@H](O)[C@H](O)[C@H]3O)c(O)c12", "target or system": "ESR2", "assay": "array formation, agonist", "system": "GFP-ERβ PRL-HeLa", "setting": "1 h", "measurement": "EC50", "result": "1560 nM"}
{"SMILES": "N#Cc1nc2c(nc1C#N)-c1ccc(Cl)cc1C2=O", "target or system": "Ubiquitin thioesterase otulin (OTULIN, Homo sapiens, UniProt Q96BN8)", "assay": "deubiquitinase activity, inhibitor, MALDI-TOF DUB", "setting": "30 °C, 35 min pre-incubation", "measurement": "IC50", "result": "10.6 µM"}
{"SMILES": "COc1ccc(-c2oc3c(CC=C(C)C)c(OC4OC(CO)C(O)C(O)C4O)cc(O)c3c(=O)c2OC2OC(C)C(O)C(O)C2OC2OC(CO)C(O)C(O)C2O)cc1 (stereo not drawn)", "target or system": "ESR2", "assay": "array formation, agonist", "system": "GFP-ERβ PRL-HeLa", "setting": "1 h", "measurement": "EC50", "result": "1860 nM"}
{"SMILES": "Cc1ccc(C(=O)Nc2ccnc(S(N)(=O)=O)c2)c(N2CCCC(F)(F)CC2)n1", "target or system": "Sodium channel protein type 4 subunit alpha (SCN4A, Homo sapiens, UniProt P35499)", "assay": "Nav1.4 sodium current, inhibitor, automated patch clamp", "measurement": "IC50", "result": "8.37 ± 1.43 µM"}
{"SMILES": "Nc1nc2ccccc2n1-c1nc2c(c(NCc3ccccc3)n1)CCCC2", "target or system": "VCP", "assay": "enzyme activity, inhibitor", "measurement": "IC50", "result": "0.05 µM"}
{"SMILES": "Cc1cc2c(F)c(Oc3ncnn4cc(OC[C@@H](C)O)c(C)c34)ccc2[nH]1", "target or system": "ABCB1", "assay": "inhibitor", "setting": "1 h", "measurement": "IC50", "result": "44.1 µM"}
{"SMILES": "O=C(O)CCc1ccno1", "target or system": "BRCA1-associated protein, ZnF-UBD domain (BRAP, Homo sapiens, UniProt Q7Z569)", "measurement": "Kd", "result": "> 1 mM"}
{"SMILES": "O=c1nc(SCc2cc(F)cc(C(F)(F)F)c2)nc(SCc2ccc3nc(Cl)ccc3c2)[nH]1", "target or system": "DNA topoisomerase 2-alpha (TOP2A, Homo sapiens, UniProt P11388)", "assay": "ATPase activity, ATP-competitive inhibitor", "setting": "with: ATP 0.25 mM", "measurement": "IC50", "result": "25.6 µM"}
{"SMILES": "Cn1cc(-c2ccc(-c3cncc(Cl)c3N3CCC4(CCNC4=O)CC3)cc2)cn1", "target or system": "COLO 205", "assay": "gene expression, microarray, refers to: EDN2 mRNA", "setting": "concentration not given, 2 h", "scale": "baseline: untreated cells", "measurement": "log2 fold change", "result": 1.92}
{"SMILES": "O=C(O)c1ccc(NS(=O)(=O)c2ccc(Cl)c(Cl)c2)cc1", "target or system": "17-beta-hydroxysteroid dehydrogenase 13", "assay": "estradiol turnover, inhibitor, LC-MS", "setting": "with: β-estradiol", "measurement": "IC50", "result": "> 80 µM"}
{"SMILES": "Oc1cc(NCCc2ccccc2)nc(O)n1", "target or system": "GPR84", "assay": "cAMP level, agonist", "measurement": "EC50", "result": "198 ± 52 nM"}
{"SMILES": "Fc1ccc(CNc2nc(-c3ccccc3)nc3ccccc23)cc1", "target or system": "VCP", "assay": "enzyme activity, inhibitor", "measurement": "IC50", "result": "11 ± 3 µM"}
{"SMILES": "Cc1cc(OC(C)C)ccc1C(=O)C(C)(C)NC(=O)c1sccc1C", "target or system": "mitochondrial complex II-III (succinate-cytochrome c oxidoreductase), Solanum tuberosum", "assay": "enzyme activity, inhibitor", "system": "cv Norin No. 1, potato tuber mitochondrial fraction", "setting": "25 °C", "measurement": "IC50", "result": "> 1 µg/mL"}
{"SMILES": "Clc1cccc(CNc2nc(-c3ccccc3)nc3ccccc23)c1", "target or system": "VCP", "assay": "enzyme activity, inhibitor", "measurement": "IC50", "result": "28 ± 9 µM"}
{"SMILES": "CCc1ccc(-c2ccc3c(C(=O)c4cc(OC)c(O)c(OC)c4)c[nH]c3c2)cc1", "target or system": "Tubulin alpha-1B chain/TUBB2B (Bos taurus, UniProt P81947+Q6B856)", "assay": "tubulin polymerization, inhibitor, turbidimetric", "setting": "with: 10 µM bovine tubulin", "measurement": "IC50", "result": "> 20 µM"}
{"SMILES": "O=C(O)CC[C@H](NC(=O)N[C@@H](CCCCNC(=O)[C@H](Cc1ccc2ccccc2c1)NC(=O)CCCCCNC(=O)CN1CCN(CC(=O)O)CCN(CC(=O)O)CCN(CC(=O)O)CC1)C(=O)O)C(=O)O [gallium-68 labelled]", "assay": "PET/CT", "system": "mouse, 22Rv1 xenograft, muscle", "setting": "intravenous, 3.7 MBq, 2 h", "measurement": "SUVmean", "result": "0.18 ± 0.01 SUV"}
{"SMILES": "CNC(=O)c1ccccc1Nc1nc(Nc2ccc(CO)cc2)ncc1Cl", "target or system": "Interleukin-1 receptor-associated kinase 4 (IRAK4, Homo sapiens, UniProt Q9NWZ3)", "setting": "cell-based", "measurement": "IC50", "result": "0.0152 ± 0.00129 µM"}
{"SMILES": "COc1cccc2c(NCc3ccc(NC(=O)OCC4c5ccccc5-c5ccccc54)cc3)nc(N3CCOc4ccccc43)nc12", "target or system": "VCP", "assay": "enzyme activity, inhibitor", "measurement": "IC50", "result": "33 ± 7 µM"}
{"SMILES": "C=CC(=O)Nc1cc(Nc2nccc(-c3cn(C)c4ccccc34)n2)c(OC)cc1N(C)CCN(C)C", "target or system": "ABCB1", "assay": "basic static model", "setting": "ABCB1 inhibition", "measurement": "IC50", "result": "no inhibition"}
{"SMILES": "N#Cc1ccc2c(NCc3ccccc3)nc(NCc3ccccc3)nc2c1", "target or system": "VCP", "assay": "enzyme activity, inhibitor", "measurement": "IC50", "result": "25 ± 10 µM"}
{"SMILES": "Cn1cc2c(C(=O)O)ccc(NS(=O)(=O)c3ccc(Cl)c(Cl)c3)c2n1", "target or system": "17-beta-hydroxysteroid dehydrogenase 13", "assay": "estradiol turnover, inhibitor, LC-MS", "setting": "with: β-estradiol", "measurement": "IC50", "result": "1.2 µM"}
